Published values gathered from unrelated publications.
Every numbered part comes from another study and shows a few of its results, in no order. Positions count from the first letter of the parent shown.

Set 1
Target: RING finger protein unkempt homolog, zinc fingers 1-6, GST-SBP tag (UNK, Homo sapiens, UniProt Q9C0B0, residues 30-357)
Method: RNA Bind-n-Seq
Molecule type: RNA
Sample: in vitro
Concentration: not given
Notes: RNA with constant flanks, human-mouse chimeric sites, ends assumed
Reference: input RNA pool
Reading: higher = stronger binding
Target sequence (chain): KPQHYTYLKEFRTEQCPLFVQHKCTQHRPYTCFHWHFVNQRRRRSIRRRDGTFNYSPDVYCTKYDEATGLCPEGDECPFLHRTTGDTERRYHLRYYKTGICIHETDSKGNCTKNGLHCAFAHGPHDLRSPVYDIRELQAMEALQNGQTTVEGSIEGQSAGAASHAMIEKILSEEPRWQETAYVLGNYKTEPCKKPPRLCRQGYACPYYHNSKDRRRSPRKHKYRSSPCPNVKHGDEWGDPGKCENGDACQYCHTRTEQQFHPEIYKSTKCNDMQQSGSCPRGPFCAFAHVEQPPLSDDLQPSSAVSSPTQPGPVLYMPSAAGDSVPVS
Oligonucleotide	bound/input enrichment [ratio]
GGGAGUUCUACAGUCCGACGAUCGUGCCCUUCUCGCUGCUGCGGAGCCCGAGCUGGGAACCAUUCCGGGACGACUGGUACCCGCAUAGCCGCCUCUUCGAUCAAGCUUUCGGGGUGCCCCGGUUGCCCGAUGAGUGGUCGCAGCAACAGAGGAUUGAGCAUCA	0.0938
GGGAGUUCUACAGUCCGACGAUCACUCAGAGAUCCACCUCCCAAAGUGCUGGGAGUAAAGGUGUGGCCACCACACCUAACUUGAUGGAUAUAUAUUUUUUUUAAUAUGAAUCUUCCUGUUCUUCAUCCAGGCAAGAACGGGUUCAACAGAGGAUUGAGCAUCA	0.323
GGGAGUUCUACAGUCCGACGAUCGCAAAGGAUGAUGAGGCGGCAGCUGUUGCCCUUUCCUCUCUCGUUCAUGCUUUGGAUGAGUUAAACAUGGUGGCCAUCGUCCGAUAUGCUUAUGACAAAAGAGCUAAUCCUCAAGUUGGUCAACAGAGGAUUGAGCAUCA	0.158
GGGAGUUCUACAGUCCGACGAUCGAGUCGAGCAAACUUGAAACAAUUCGUUUUACAAAAACCUCAGUGUUCACUUGCUUGGCGAUAGCAUUGGGGUUUUAUAGGUUCUGGGGAAGUAGUAGACGAUGAUGCUGCCGCUGCUGCCAACAGAGGAUUGAGCAUCA	1.13

Set 2
Target: Histone acetyltransferase KAT6A, winged helix 1, GST fusion (KAT6A, Homo sapiens, UniProt Q92794, residues 1-85)
Method: protein binding microarray
Molecule type: double-stranded DNA, one strand shown
Sample: in vitro
Concentration: not given
Notes: 8-mer, flanks averaged, mean of 2 arrays, mostly near background
Reference: not given
Reading: higher = stronger binding
Construct (chain): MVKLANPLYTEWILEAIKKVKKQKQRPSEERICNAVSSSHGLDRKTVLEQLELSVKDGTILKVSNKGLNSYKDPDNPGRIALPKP
Oligonucleotide	E-score
CGTAAGCA	-0.0659
AGCTAGGA	-0.177
ACATTGCC	-0.0453
CTTCGAGA	-0.18
CTAAAGTA	-0.11
CGACTAGC	0.13
CTGATATA	-0.13
ATTGTGTA	-0.0762
CCCAGAGG	-0.168
TCTATTCA	-0.135
ACGAGATG	-0.119
GCAGATAA	-0.0953
GCCAAAAA	-0.18
CAGATCTA	-0.11
AGTCGACA	-0.314
TAACCTTA	-0.165
GAAAGGGA	0.0209
ATTCCATG	-0.0634
ACGACTAG	-0.109
CCGCTACC	0.302

Set 3
Target: ABI1, truncated, D143A, DHFR fusion (Arabidopsis thaliana, UniProt P49597)
Method: DHFR PCA, dose-response
Sample: yeast
Notes: Hill fit, mean, not affinity
With: (+)-ABA, dose series
Reading: lower = more sensitive
Parent: PYL1, truncated, DHFR fusion (Arabidopsis thaliana, UniProt Q8VZS8); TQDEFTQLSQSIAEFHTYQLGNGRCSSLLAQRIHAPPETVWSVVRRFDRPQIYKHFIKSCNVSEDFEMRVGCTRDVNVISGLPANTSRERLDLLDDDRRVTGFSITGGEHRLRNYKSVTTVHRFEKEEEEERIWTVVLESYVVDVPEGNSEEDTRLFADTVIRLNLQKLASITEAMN
Variant	ABA EC50
I52H	6.44 µM
N114R	31.6 µM
T86L	33.3 µM
T86G	3.6 µM
R111A	119 µM
H55D	7.16 µM
V100K	278 µM
G21E	1.99 µM
G108E	287 µM
F66Y	4.07 µM
T101H	94 µM
I162T	359 µM
M176W	2.34 µM

Set 4
Target: CCND1, cyclin fold, Cln2 fusion (human)
Method: yeast growth competition, sequencing
Sample: yeast
Notes: weak parent motif
Reference: not given
Reading: higher = stronger binding
Parent: CDKN1B docking peptide (human); PSACRNLFGPVDH
Variant	normalised enrichment score
C4W	0.497
H13D	0.853
L7G	0.213
R5W	0.185
N6G	0.107
S2I	0.782
V11R	0.146
P1Q	1.03
G9W	0.0887
N6K	1.42
H13E	1.06
G9I	0.366
L7H	-0.281
F8E	0.159
D12T	0.555
V11C	0.728
A3K	-0.154

Set 5
Target: Ras GTPase-activating protein-binding protein 1, full length (G3BP1, Homo sapiens, UniProt Q13283)
Sequence of UniProt Q13283 (whole entry, looked up): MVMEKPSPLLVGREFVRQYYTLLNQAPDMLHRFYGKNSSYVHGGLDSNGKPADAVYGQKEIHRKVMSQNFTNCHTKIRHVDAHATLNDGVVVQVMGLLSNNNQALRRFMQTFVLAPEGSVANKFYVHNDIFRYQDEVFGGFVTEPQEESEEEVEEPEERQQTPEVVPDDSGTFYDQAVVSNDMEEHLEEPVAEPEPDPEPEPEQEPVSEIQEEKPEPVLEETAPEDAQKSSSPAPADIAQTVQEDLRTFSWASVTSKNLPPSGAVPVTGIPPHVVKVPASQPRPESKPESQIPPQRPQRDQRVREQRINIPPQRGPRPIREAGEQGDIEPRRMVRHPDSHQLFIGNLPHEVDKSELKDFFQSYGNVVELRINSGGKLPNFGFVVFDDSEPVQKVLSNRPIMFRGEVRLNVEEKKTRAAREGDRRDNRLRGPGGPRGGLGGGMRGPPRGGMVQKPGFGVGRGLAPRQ
Method: RNA Bind-n-Seq
Molecule type: RNA
Sample: in vitro
Concentration: 200 nM
Notes: whole 134-nt RNA, ends assumed
With: 150 mM LiCl
Reference: input library
Reading: higher = stronger binding
All molecules: 7-deaza-guanosine replaces G
Constant ends, left off below: GGGAGUUCUACAGUCCGACGAUC … UGGAAUUCUCGGGUGUCAAGG
Oligonucleotide	log2 enrichment
AGUCCUGUGCUACACAUCGUAUGUACCGAAUCGGGGUUUUUGGGGUGGGGAAAGGGGAAAGUAUUAUGUUACGCCGUUCGGAUCUGCACU	0.55
CUCAAGUCCUGUGCUACACAUCGUAUGUACCGAAUCGGGUGGGUUUGGGAGGGAAAGUAUUAUGUUACGCCGUUCGGAUCUGCACUUCCA	0.173
CAAGUCCUGUGCUACACAUCGUAUGUACCGAAUCGGAAAAAAAGGUUUGGAAAGGAAAGUAUUAUGUUACGCCGUUCGGAUCUGCACUUC	-1.61
ACCAUGCAGGUGGGCAUCUUUGGGAAGUGGGGCAAGGGGGGGAUAGGGAGGGGGGUAACACUUUGGAAACAGGUGGUCCCAGGUCGUUUC	-0.111
ACCAUGCAGGUGGGCAUCUUUGGGAAGUUGGGCAAGGGGGGGAUAGGGAGGGGGGUAACACUUUGGGAACAGGUGGUCCCAGGUCGUUUC	0.499
UGCCCCUGGUGGCAUGCGGGGAGGAAGAGGUGGCCUCAUGGAUCGUGGUGGUCCCGGUGGAAUGUUCAGAGGUGGCCGUGGUGGAGACAG	-0.0789
CACAGACAACACGCACCCACACAGACACAGAGGGAAGGGGUUGGGAUGGGGACAGGGUGCAGAGCAGGGCGGGGUAGGACCCCAGCCCCU	-0.188

Excerpt of the above (set 4):
Variant	normalised enrichment score
H13D	0.853
R5W	0.185
C4W	0.497
S2I	0.782
G9W	0.0887
P1Q	1.03
V11C	0.728
G9I	0.366
N6K	1.42
V11R	0.146
